Measured values pooled from the literature.
Every numbered part comes from another study and shows a few of its results, in no order. “And” joins repeats or separate records; there may be more than shown. Converted amounts (≈) assume the structure as drawn.
UniProt P10632, sequence (whole entry, looked up): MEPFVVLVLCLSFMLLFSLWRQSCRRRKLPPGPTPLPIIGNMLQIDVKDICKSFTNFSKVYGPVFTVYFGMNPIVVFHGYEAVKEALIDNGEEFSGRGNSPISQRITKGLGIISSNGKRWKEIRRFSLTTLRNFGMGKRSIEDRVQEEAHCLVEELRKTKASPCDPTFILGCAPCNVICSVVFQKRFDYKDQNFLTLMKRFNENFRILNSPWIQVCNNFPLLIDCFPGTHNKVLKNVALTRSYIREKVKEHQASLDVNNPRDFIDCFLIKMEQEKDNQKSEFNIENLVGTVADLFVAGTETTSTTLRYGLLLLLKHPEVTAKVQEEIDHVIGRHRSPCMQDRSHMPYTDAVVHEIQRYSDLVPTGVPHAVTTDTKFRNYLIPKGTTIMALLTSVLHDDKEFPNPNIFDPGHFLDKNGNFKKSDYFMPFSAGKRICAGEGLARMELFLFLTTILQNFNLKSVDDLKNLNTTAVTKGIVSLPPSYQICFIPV
UniProt P05177, sequence (whole entry, looked up): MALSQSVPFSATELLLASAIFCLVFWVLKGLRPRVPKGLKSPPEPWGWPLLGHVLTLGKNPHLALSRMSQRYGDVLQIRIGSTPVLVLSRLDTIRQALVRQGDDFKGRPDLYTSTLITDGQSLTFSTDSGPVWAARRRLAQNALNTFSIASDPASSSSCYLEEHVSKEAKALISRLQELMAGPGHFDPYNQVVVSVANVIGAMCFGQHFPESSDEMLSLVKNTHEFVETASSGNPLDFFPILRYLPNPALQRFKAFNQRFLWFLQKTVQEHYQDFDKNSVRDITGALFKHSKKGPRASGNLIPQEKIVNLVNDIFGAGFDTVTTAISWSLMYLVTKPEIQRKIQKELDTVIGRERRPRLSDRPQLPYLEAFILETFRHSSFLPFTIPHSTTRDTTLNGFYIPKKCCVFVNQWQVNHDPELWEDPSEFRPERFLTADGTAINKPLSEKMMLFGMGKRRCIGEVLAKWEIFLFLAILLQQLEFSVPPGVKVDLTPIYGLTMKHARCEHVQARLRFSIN
UniProt P20813, sequence (whole entry, looked up): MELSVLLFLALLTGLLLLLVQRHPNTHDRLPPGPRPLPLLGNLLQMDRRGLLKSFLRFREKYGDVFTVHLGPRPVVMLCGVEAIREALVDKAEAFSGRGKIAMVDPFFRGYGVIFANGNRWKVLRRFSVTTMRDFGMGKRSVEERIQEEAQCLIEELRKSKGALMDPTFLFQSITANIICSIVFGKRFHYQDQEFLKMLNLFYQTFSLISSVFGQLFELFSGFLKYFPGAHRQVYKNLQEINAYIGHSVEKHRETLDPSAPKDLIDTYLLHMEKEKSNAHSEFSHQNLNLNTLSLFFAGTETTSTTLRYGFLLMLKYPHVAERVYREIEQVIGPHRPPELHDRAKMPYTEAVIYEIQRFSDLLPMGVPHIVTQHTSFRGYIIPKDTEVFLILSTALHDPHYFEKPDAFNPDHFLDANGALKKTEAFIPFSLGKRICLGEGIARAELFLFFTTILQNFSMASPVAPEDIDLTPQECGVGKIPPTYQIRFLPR

Sample 1 — effect on: kinase activity; mode: inhibitor; method: ADP-Glo; tested at: 0.6667 µM
Target: Cyclin-dependent kinase 12, with cyclin K (CDK12, Homo sapiens, UniProt Q9NYV4)
UniProt Q9NYV4, sequence (whole entry, looked up): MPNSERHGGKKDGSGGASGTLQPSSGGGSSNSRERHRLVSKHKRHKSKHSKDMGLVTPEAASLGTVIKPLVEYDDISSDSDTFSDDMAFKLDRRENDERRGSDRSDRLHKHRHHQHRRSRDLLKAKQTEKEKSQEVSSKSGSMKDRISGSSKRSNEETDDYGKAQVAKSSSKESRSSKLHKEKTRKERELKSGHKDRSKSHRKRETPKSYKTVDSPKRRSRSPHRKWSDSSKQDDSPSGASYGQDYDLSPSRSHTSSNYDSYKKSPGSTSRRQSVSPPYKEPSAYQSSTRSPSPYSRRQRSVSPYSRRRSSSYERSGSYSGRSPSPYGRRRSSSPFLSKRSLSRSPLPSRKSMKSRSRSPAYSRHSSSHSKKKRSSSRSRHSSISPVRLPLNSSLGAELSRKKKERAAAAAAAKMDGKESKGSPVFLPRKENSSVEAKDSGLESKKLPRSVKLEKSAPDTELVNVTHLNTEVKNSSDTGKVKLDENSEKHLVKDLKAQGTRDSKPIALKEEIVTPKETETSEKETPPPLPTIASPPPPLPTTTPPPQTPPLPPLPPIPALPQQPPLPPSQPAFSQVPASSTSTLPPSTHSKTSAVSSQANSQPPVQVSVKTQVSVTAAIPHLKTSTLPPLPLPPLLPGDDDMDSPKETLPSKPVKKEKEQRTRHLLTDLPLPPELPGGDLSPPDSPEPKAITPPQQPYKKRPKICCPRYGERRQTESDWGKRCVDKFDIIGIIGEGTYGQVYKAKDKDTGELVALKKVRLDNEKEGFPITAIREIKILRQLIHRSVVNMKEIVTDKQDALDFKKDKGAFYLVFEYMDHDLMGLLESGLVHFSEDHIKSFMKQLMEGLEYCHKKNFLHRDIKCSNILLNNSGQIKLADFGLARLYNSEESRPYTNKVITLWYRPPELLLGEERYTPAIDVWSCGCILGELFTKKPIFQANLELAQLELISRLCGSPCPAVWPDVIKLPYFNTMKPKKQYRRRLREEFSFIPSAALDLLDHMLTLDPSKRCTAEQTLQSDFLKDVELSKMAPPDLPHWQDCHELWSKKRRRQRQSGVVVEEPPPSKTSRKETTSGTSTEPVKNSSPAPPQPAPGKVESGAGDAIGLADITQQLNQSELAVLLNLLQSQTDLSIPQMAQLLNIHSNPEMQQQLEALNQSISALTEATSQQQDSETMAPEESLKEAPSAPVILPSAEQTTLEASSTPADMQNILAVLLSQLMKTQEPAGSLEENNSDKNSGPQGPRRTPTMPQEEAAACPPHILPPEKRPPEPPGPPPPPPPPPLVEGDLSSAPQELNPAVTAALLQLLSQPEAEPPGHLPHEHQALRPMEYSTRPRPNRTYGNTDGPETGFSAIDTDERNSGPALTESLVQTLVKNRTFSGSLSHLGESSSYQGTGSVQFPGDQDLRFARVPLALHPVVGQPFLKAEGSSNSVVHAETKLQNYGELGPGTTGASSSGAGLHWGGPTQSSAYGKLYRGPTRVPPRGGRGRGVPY
Cn1cc(-n2cnc3c(NCc4nc5cc(Cl)c(Cl)cc5[nH]4)nc(N4CCNCC4)nc32)cn1 gave an inhibition of 51.2%.
CCn1cnc2c(NCc3nc4cc(F)c(F)cc4[nH]3)nc(N3CCn4ncnc4C3)nc21 has an inhibition of 78%.
CCn1cnc2c(NCc3nc4cc(Cl)c(Cl)cc4[nH]3)nc(N3CCN(c4ccccn4)CC3)nc21 has an inhibition of 71.9%.
CC(=O)N1CCN(c2nc(NCc3nc4cc(Cl)c(Cl)cc4[nH]3)c3ncn(-c4cnn(C)c4)c3n2)CC1 has an inhibition of 78.3%.
CC(=O)N1CCN(c2nc(NCc3nc4cc(Cl)c(Cl)cc4[nH]3)c3ncn(C)c3n2)CC1 has an inhibition of 56%.
For CCn1cnc2c(NCc3nc4cc(Cl)c(Cl)cc4[nH]3)nc(N3CCN(C(=O)c4cccnc4)CC3)nc21, the inhibition was 79.1%.
The inhibition of CCn1cnc2c(NCc3nc4cc(Cl)c(Cl)cc4[nH]3)nc(N3CCN(C(=O)CNC(C)=O)CC3)nc21 is reported as 84.8%.
With CCn1cnc2c(NCc3nc4cc(Cl)c(Cl)cc4[nH]3)nc(N3CCN(C(=O)[C@H](C)NC(C)=O)CC3)nc21 the inhibition was 67.3%.
CCn1cnc2c(NCc3nc4cc(Cl)c(Cl)cc4[nH]3)nc(N3CCn4ncnc4C3)nc21 has an inhibition of 88%.

Sample 2 — cell line: Gaucher fibroblasts L444P/L444P; method: 4-MUG hydrolysis, cell lysate; tested at: 10 µM; relative to: DMSO
Ic1ccc(Nc2nc(NCCCN3CCOCC3)nc(N3CCOCC3)n2)cc1 gave a GCase activity of 129% and 135% and 124% and 120% and 139% and 121%.
CCOc1ccc2nc(Sc3nc(Nc4ccc(OC)cc4)nc(N4CCOCC4)n3)sc2c1 gave a GCase activity of 206% and 209% and 237% and 223%.
The GCase activity of c1ccc(Nc2nc(NCCN3CCOCC3)nc(N3CCOCC3)n2)cc1 is reported as 122% and 120% and 110% and 111% and 106%.
For Ic1cccc(Nc2nc(NCCN3CCOCC3)nc(N3CCOCC3)n2)c1, the GCase activity was 132% and 142% and 143% and 133% and 122%.
The GCase activity of Ic1ccc(Nc2nc(NCCN3CCOCC3)nc(N3CC4CC3CO4)n2)cc1 (stereo not shown) is reported as 112% and 106% and 105% and 99.3% and 101%.
With Cc1ccc(Nc2nc(NCCN3CCOCC3)nc(N3CCOCC3)n2)cc1 the GCase activity was 141% and 171% and 144% and 166% and 142%.
With Ic1ccc(Nc2nc(NCCN3CCOCC3)nc(N3CCSCC3)n2)cc1 the GCase activity was 90.9% and 96.6% and 93.5% and 89% and 87.5%.
Ic1ccc(Nc2nc(NCCN3CCOCC3)nc(NC3CCCCC3)n2)cc1 gave a GCase activity of 99% and 91.1% and 91% and 94.8%.

Sample 3
Structure (SMILES): CC(C)(C)c1ccc(Oc2ccc3c(c2)OC(O)(C(=O)O)C(=O)N3Cc2ccccc2)cc1 (stereo not shown)
Arabidopsis thaliana; hypocotyl length; Col-0, seedlings; 50 µg/mL — inhibition: 32.3%.
For Abutilon theophrasti; fresh weight; 150 g ai/ha, pre-emergence treatment: inhibition read 24.6% and 25.6% and 21.5%.
For Arabidopsis thaliana; root length; Col-0; 50.0 µg/mL, 7 days, seed germination, dark: inhibition read 64.8%.
It gave 81.4% and 82.3% and 83.2% for inhibition (Setaria viridis; fresh weight; 150 g ai/ha, pre-emergence treatment).
Alopecurus japonicus; fresh weight; 150 g ai/ha, pre-emergence treatment — inhibition: 57.7% and 60.4% and 58.9%.
For Arabidopsis thaliana; hypocotyl length; Col-0, seedlings; 6.25 µg/mL: inhibition read 15.4%.
Zea mays; fresh weight; soil surface spray, 150 g ai/ha, 21 days, pre-emergence crop safety — inhibition: 0.25% and 0.2% and 0.4%.
For Arabidopsis thaliana; root length; Col-0; 6.25 µg/mL, 7 days, seed germination, dark: inhibition read 22.6%.
It gave 32.3% for inhibition (Arabidopsis thaliana; hypocotyl length; Col-0; 50.0 µg/mL, 7 days, seed germination, dark).
It gave 68.9% and 64.9% and 69.2% for inhibition (Eclipta prostrata; fresh weight; 150 g ai/ha, post-emergence treatment).
The inhibition was 89.7% (Arabidopsis thaliana; root length; Col-0, seedlings; 100 µg/mL).
For Echinochloa crus-galli; fresh weight; 150 g ai/ha, post-emergence treatment: inhibition read 49.1% and 49.5% and 49.8%.
It gave 15.4% for inhibition (Arabidopsis thaliana; hypocotyl length; Col-0; 6.25 µg/mL, 7 days, seed germination, dark).
For Arabidopsis thaliana; root length; Col-0, seedlings; 3.125 µg/mL; relative to: water control: inhibition read 7.74%.

Sample 4 — mode: inhibitor
SMILES: NC/C(=C\F)COc1cccc(Cn2c(=S)[nH]c(=O)c3[nH]cnc32)c1
The remaining activity was 33.4% and 27.1% (Cytochrome P450 2C9 (CYP2C9, Homo sapiens, UniProt P11712); 30 µM).
It gave 110% and 99.4% for remaining activity (Cytochrome P450 1A2 (CYP1A2, Homo sapiens, UniProt P05177); 0.37 µM).
Cytochrome P450 2C8 (CYP2C8, Homo sapiens, UniProt P10632); 0.37 µM — remaining activity: 121% and 117%.
For Cytochrome P450 2B6 (CYP2B6, Homo sapiens, UniProt P20813); 0.37 µM: remaining activity read 88.2% and 76.8%.

Sample 5 — effect on: thermal unfolding; method: differential scanning fluorimetry; tested at: 5.5 µM; direction: higher = more unfolded
SMILES: C[C@@H]1CN(c2ccc(-c3cc(C(=O)NCCOCCOCCOCCOCCOCCOCCNC(=O)/C=C/c4[nH]cc(C(=O)N[C@@H](CC(N)=O)c5ccc(F)c(Cl)c5)c4-c4ccc(Cl)cc4F)ccc3F)cc2NC(=O)c2ccc(F)cc2C(F)(F)F)C[C@H](C)N1C
DCAF1: DDB1- and CUL4-associated factor 1 (DCAF1, Homo sapiens, UniProt Q9Y4B6)
UniProt Q9Y4B6, sequence (whole entry, looked up): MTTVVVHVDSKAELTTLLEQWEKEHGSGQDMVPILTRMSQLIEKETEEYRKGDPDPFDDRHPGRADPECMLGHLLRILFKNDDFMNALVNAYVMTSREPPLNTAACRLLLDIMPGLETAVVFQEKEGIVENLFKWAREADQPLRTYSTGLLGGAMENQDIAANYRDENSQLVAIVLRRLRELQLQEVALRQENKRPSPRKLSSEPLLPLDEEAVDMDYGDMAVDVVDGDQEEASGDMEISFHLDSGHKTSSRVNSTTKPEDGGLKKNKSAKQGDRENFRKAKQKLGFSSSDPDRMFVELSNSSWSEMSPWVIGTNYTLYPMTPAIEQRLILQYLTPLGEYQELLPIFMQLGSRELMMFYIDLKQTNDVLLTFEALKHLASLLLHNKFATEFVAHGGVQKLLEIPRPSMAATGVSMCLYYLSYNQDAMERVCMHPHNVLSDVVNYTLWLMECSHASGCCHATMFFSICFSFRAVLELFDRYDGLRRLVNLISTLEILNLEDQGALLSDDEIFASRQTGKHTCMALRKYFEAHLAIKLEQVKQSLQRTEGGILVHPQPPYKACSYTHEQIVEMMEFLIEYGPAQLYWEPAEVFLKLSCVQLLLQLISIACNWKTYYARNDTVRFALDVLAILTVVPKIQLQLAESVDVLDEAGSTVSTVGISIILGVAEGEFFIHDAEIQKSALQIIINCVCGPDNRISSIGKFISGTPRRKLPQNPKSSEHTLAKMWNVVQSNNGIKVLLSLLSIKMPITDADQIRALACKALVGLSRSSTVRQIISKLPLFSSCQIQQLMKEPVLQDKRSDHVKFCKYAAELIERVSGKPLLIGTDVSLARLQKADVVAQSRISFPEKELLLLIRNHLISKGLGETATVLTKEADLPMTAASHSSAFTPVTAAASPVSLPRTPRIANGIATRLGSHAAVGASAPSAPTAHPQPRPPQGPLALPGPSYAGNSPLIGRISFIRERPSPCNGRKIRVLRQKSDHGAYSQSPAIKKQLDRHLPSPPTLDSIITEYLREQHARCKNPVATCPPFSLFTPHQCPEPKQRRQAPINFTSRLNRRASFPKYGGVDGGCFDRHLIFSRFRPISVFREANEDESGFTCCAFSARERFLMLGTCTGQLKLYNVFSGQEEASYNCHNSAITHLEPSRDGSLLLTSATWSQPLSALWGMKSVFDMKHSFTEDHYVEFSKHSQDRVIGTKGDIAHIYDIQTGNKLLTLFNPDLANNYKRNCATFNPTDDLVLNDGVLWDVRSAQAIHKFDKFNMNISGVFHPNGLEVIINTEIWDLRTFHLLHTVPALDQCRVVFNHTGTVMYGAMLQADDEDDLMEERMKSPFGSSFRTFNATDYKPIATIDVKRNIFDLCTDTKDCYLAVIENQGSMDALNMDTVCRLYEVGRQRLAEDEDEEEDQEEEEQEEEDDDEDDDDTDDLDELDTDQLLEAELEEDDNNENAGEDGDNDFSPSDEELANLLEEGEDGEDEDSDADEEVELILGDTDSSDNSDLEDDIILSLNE
WDR5: WD repeat-containing protein 5 (WDR5, Homo sapiens, UniProt P61964)
DCAF1; 27.8 °C — “SYPRO Orange fluorescence”: 7910 a.u.
WDR5; 27.6 °C — “SYPRO Orange fluorescence”: 13400 a.u.
For WDR5; 58.41 °C: “SYPRO Orange fluorescence” read 15700 a.u.
The “SYPRO Orange fluorescence” was 13300 a.u. (WDR5; 26.8 °C).
The “SYPRO Orange fluorescence” was 34100 a.u. (DCAF1; 87.61 °C).
The “SYPRO Orange fluorescence” was 16600 a.u. (WDR5; 52.41 °C).
It gave 15600 a.u. for “SYPRO Orange fluorescence” (WDR5; 48.2 °C).
The “SYPRO Orange fluorescence” was 13800 a.u. (WDR5; 37 °C).
For WDR5; 76.61 °C: “SYPRO Orange fluorescence” read 55400 a.u.
WDR5; 62.01 °C — “SYPRO Orange fluorescence”: 15200 a.u.
DCAF1; 89.61 °C — “SYPRO Orange fluorescence”: 32600 a.u.

Sample 6 — cell line: U-87 MG; tested at: concentration not given; relative to: DMSO
Compound: CCN1/C(=C/C=C2\CCCC(/C=C/C3=[N+](CC)c4ccccc4C3(C)C)=C2NCCCCCCCCN2CCC(Nc3nc4ccccc4n3Cc3ccc(F)cc3)CC2)C(C)(C)c2ccccc21
It gave 0.808 for “log2 fold change” (refers to: SNX11 mRNA).
It gave 0.877 for “log2 fold change” (refers to: HMBOX1 mRNA).
refers to: CXXC5 mRNA — “log2 fold change”: -2.47.
It gave -1.31 for “log2 fold change” (refers to: ARHGEF17 mRNA).
For refers to: PLEKHG3 mRNA: “log2 fold change” read -2.96.
It gave -1 for “log2 fold change” (refers to: TRAPPC1 mRNA).
For refers to: TPX2 mRNA: “log2 fold change” read -1.67.
It gave -2.53 for “log2 fold change” (refers to: FAM20C mRNA).
The “log2 fold change” was -2.3 (refers to: CCNA2 mRNA).
The “log2 fold change” was 1.14 (refers to: CCDC174 mRNA).
The “log2 fold change” was -2.32 (refers to: PCDHB7 mRNA).
The “log2 fold change” was 0.817 (refers to: NGLY1 mRNA).
refers to: DISP2 mRNA — “log2 fold change”: -1.45.
It gave 0.808 for “log2 fold change” (refers to: CDK13 mRNA).
It gave -1.58 for “log2 fold change” (refers to: APCDD1L mRNA).
The “log2 fold change” was -1.14 (refers to: GALNT2 mRNA).

Further values, each from its own experiment
PKMYT1: Membrane-associated tyrosine- and threonine-specific cdc2-inhibitory kinase (PKMYT1, Homo sapiens, UniProt Q99640)
UniProt Q99640, sequence (whole entry, looked up): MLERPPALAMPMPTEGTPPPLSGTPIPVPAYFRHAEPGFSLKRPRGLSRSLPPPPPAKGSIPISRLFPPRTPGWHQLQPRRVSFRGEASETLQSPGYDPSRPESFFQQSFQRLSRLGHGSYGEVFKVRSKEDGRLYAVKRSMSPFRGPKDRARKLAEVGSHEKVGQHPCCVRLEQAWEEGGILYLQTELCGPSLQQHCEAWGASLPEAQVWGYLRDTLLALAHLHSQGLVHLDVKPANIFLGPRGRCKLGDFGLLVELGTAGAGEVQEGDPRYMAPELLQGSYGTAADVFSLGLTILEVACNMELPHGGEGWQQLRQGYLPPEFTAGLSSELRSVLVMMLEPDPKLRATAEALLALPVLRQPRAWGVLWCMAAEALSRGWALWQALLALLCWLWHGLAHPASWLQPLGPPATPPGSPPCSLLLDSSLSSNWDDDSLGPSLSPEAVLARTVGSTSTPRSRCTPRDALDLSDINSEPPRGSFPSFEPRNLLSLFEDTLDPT
The inhibition of Cc1ccnc(C)c1-c1cnc2[nH]c(-c3ccc(N4CCN(C)CC4)nc3C)nc2c1 is reported as -6.5% and -7.75% (PKMYT1; binding, HTRF; 3333.33 nM).
The phospho-ERK1/2 level of Cc1ncsc1-c1ccc(C2(NC(=O)C3CC(O)CN3C(=O)C(NC(=O)c3ccc(COc4c(-c5c(C)c(F)cc6[nH]ncc56)c(C5CC5)cc5c(N6CC7CC6CN7)nc(OC6CCOCC6)nc45)cc3)C(C)C)CC2)cc1 (stereo not shown) is reported as 92% and 99.1% and 88.4% and 95.2% and 87.4% (AsPC-1; in-cell ELISA; 10 nM, individual replicates).
With Cc1ncc(-c2cc3c(C#N)c(-c4c(C)ccc(O)c4C)cnc3[nH]2)cn1 the kinetic solubility was 25.8 µM (≈ 9.17 µg/mL) (phosphate buffer; 24 h, pH 7.4).
For Cc1ncsc1-c1ccc(C(CO)NC(=O)C2CC(O)CN2C(=O)C(C(C)C)n2cc(-c3ccc(COc4c(-c5c(C)c(F)cc6[nH]ncc56)c(C5CC5)cc5c(N6CC7CC6CN7)nc(OC6CCOCC6)nc45)cc3)nn2)cc1 (stereo not shown), the kon was 275000 M⁻¹ s⁻¹ (von Hippel-Lindau disease tumor suppressor, with Elongin B/C (VHL, Homo sapiens, UniProt P40337); SPR, single-cycle; immobilized VCB complex; binary, geometric mean).
The degradation of Cc1ccc(O)c(C)c1-c1cnc2[nH]c(-c3cnc(N)nc3)cc2c1C#N is reported as -29.4% (PKMYT1; degrader, automated immunoblot; HCC1569; 37.04 nM).
The phospho-ERK1/2 level of Cc1ncsc1-c1ccc(C2(NC(=O)C3CC(O)CN3C(=O)C(NC(=O)c3ccc(COc4c(-c5c(C)c(F)cc6[nH]ncc56)c(C5CC5)cc5c(N6CC7CC6CN7)nc(OC6CCOCC6)nc45)cc3)C(C)(C)C)CC2)cc1 (stereo not shown) is reported as 87.2% and 106% and 102% and 92.1% (AsPC-1; in-cell ELISA; 300 pM, individual replicates).
For Cc1ccc(O)c(C)c1-c1cnc2[nH]c(-c3cnc(N4CCC(CN5CCN(c6cc7c(cc6F)c(N6CCC(=O)NC6=O)nn7C)CC5)CC4)nc3)cc2c1C#N, “phospho-CDK1 (Thr14) level” read 24.6 a.u. and 42.3 a.u. (HCC1569; CDK1 Thr14 phosphorylation, in-cell western; 37.04 nM; lower = stronger inhibition).
For Cc1ncsc1-c1ccc(C(CO)NC(=O)C2CC(O)CN2C(=O)C(NC(=O)c2ccc(COc3c(-c4c(C)c(F)cc5[nH]ncc45)c(C4CC4)cc4c(N5CC6CC5CN6)nc(OC5CCOCC5)nc34)cc2)C(C)C)cc1 (stereo not shown), the IC50 was 108 nM and 72.7 nM and 64.4 nM (AsPC-1; In-Cell ELISA, refers to: phospho-ERK1/2).

Some of these lines once more (sample 5):
The “SYPRO Orange fluorescence” was 13800 a.u. (WDR5; 37 °C).
The “SYPRO Orange fluorescence” was 16600 a.u. (WDR5; 52.41 °C).
DCAF1; 89.61 °C — “SYPRO Orange fluorescence”: 32600 a.u.
DCAF1; 27.8 °C — “SYPRO Orange fluorescence”: 7910 a.u.
WDR5; 62.01 °C — “SYPRO Orange fluorescence”: 15200 a.u.
For WDR5; 58.41 °C: “SYPRO Orange fluorescence” read 15700 a.u.
